Results collected from several papers.
Each line is one published result; not all experiments were run side by side. ± marks the error that the study gave.

| SMILES | cell line | test | setting | how to read | measurement | value |
| --- | --- | --- | --- | --- | --- | --- |
| N=C(N)Nc1ccc(-c2nc3ccc(-c4ccc5nc(-c6ccc(NC(=N)N)cc6)[nH]c5c4)cc3[nH]2)cc1 | wild-type fibroblasts | – | concentration not given | – | MBNL1 exon 5 inclusion | no effect |
| CC/C=C\C/C=C\C/C=C\C/C=C\C/C=C\C/C=C\CCC(=O)Nc1ccn(C2OC(CO)C(O)C2(F)F)c(=O)n1 (stereo not drawn) | SK-MEL-28 | NCI60 screen | – | – | CC50 | 53.8 µM |
| Cc1ccnc(Nc2c3c(nc4cc(C)ccc24)CCCC3)c1 | SH-SY5Y | MTT | 50 µM, 1 h pretreatment, 10% FBS, together with: H2O2 | – | viability | 38.5 ± 1.87% |
| F[P-](F)(F)(F)(F)F.OCP(CO)CO.OCP(CO)CO.OCP(CO)CO.OCP(CO)CO.[Cu+] | non-tumour over colon cancer cells | – | – | reference: cisplatin | selectivity index ratio | 35 fold |
| COC(=O)C1=CO[C@@H](OC(C)=O)[C@@H]2C(Cn3cc(COCc4ccc(OC)cc4)nn3)=CC[C@H]12 | SK-N-SH | neuroprotection, MTT | 0.3 µM, 24 h, together with: 250 µM H2O2 | – | viability | 67.6 ± 0.5% |
| [Cl][Au-]1([Cl])[c]2ccccc2P(c2ccccc2)(c2ccccc2)=[N+]1c1ccccc1 | Jurkat Bak knockdown | refers to: annexin V and low ΔΨm | concentration not given, 24 h | – | apoptotic cells | ~20% |
| COC(=O)C1=CO[C@@H](O)[C@@H]2C(Cn3cc(C4(O)CCCCC4)nn3)=CC[C@H]12 | SK-N-SH | neuroprotection, MTT | 0.6 µM, 24 h, together with: 250 µM H2O2 | – | viability | 74.1 ± 1.7% |
| CC(C)C[C@H](NC(=O)[C@H](CO)NC(=O)[C@H](Cc1c[nH]c2ccccc12)NC(=O)[C@H](Cc1ccccc1)NC(=O)[C@H](Cc1ccccc1)NC(=O)[C@H](CCC(N)=O)NC(=O)[C@@H]1CCCN1C(=O)[C@H](CCCNC(=N)N)NC(=O)[C@H](CCCNC(=N)N)NC(=O)[C@H](CCCNC(=N)N)NC(=O)[C@H](CCC(N)=O)NC(=O)[C@H](CCCNC(=N)N)NC(=O)[C@H](CCCNC(=N)N)NC(=O)[C@H](CCCCN)NC(=O)[C@H](CCCCN)NC(=O)[C@H](CCCNC(=N)N)NC(=O)CNC(=O)[C@@H](N)Cc1ccc(O)cc1)C(=O)N[C@@H](CS)C(=O)N[C@H](C(=O)N[C@@H](C)C(=O)O)[C@@H](C)O | Jurkat | PI staining flow cytometry | 15 µM, 18 h, 0.5% FBS | – | cell death | 70.5% |
| COc1ccc(Nc2c(NC3CCN(Cc4ccccc4)CC3)c(=O)c2=O)cc1 | SH-SY5Y | neuroprotection, MTT | 12.5 µM, 24 h pretreatment, together with: H2O2 650 µM for 4 h | – | cell survival | 60.6% |
| COC(=O)C1=CO[C@@H](O)[C@@H]2C(Cn3cc(C(O)(c4ccccc4)c4ccccc4)nn3)=CC[C@H]12 | SK-N-SH | neuroprotection, MTT | 0.075 µM, 24 h, together with: 250 µM H2O2 | – | viability | 73 ± 3.1% |
| COc1cc(C)c(OC)c(OC)c1OC | SK-OV-3 | cell growth or viability, MTT | 72 h | – | GI50 | > 250 µM |
| CN1C(=O)C2(Cc3ccc(CC45SSC(CO)(C(=O)N4C)N(C)C5=O)cc3)SSC1(CO)C(=O)N2C (racemic) | MCF7 cells | microarray | 600 nM, fold change at least 2.0, together with: DFO 300 µM | reference: DFO alone | number of up-regulated transcripts | 290 |
| COC(=O)C1=CO[C@@H](O)[C@@H]2C(Cn3cc(-c4ccc(F)cc4)nn3)=CC[C@H]12 | SK-N-SH | neuroprotection, MTT | 0.075 µM, 24 h, together with: 250 µM H2O2 | – | viability | 50.9 ± 1.2% |
| C1=CCCC=CCC1.C1=CCCC=CCC1.O=C(N=P12CN3CN(CN(C3)C1)C2)c1cccc[c]1[Pt+].O=C(N=P12CN3CN(CN(C3)C1)C2)c1cccc[c]1[Pt+].[Cl][Hg-]([Cl])[Cl].[Cl][Hg-]([Cl])[Cl].[Cl][Hg][Cl].[Cl][Hg][Cl] | Jurkat | annexin V flow cytometry | 10 µM, 24 h | – | dead cells | ~50% |
| CCn1cc(-c2ccn3c(-c4ccc(-c5nnc(C)o5)cc4)cnc3c2)cn1 | human SAOS-2 | SIK substrate phosphorylation, refers to: HDAC4/5, CRTC2 | concentration not given | – | activity | inactive |

Some of these lines once more:
| SMILES | cell line | test | setting | how to read | measurement | value |
| --- | --- | --- | --- | --- | --- | --- |
| C1=CCCC=CCC1.C1=CCCC=CCC1.O=C(N=P12CN3CN(CN(C3)C1)C2)c1cccc[c]1[Pt+].O=C(N=P12CN3CN(CN(C3)C1)C2)c1cccc[c]1[Pt+].[Cl][Hg-]([Cl])[Cl].[Cl][Hg-]([Cl])[Cl].[Cl][Hg][Cl].[Cl][Hg][Cl] | Jurkat | annexin V flow cytometry | 10 µM, 24 h | – | dead cells | ~50% |
